Experimental data pooled from the literature.
A part holds a random share of what one study measured.

Series 1
Target: Histone acetyltransferase KAT6A, both winged helices, GST fusion (KAT6A, Homo sapiens, UniProt Q92794, residues 1-181)
Technique: protein binding microarray
Molecule type: double-stranded DNA, one strand shown
Medium: in vitro
Concentration: not given
Notes: 8-mer, flanks averaged, mean of 2 arrays, mostly near background
Reference: not given
Reading: higher = stronger binding
Target sequence (chain): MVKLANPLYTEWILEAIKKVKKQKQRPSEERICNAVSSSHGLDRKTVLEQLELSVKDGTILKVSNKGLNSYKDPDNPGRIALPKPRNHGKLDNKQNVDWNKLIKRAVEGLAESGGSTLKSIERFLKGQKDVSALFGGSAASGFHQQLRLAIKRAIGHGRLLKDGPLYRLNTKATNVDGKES
The E-score of `GTCATTCA` is reported as -0.0209.
The E-score of `AATGAAGA` is reported as 0.0637.
The E-score of `CTGGAGTA` is reported as -0.143.
For `TCCTTGAA`, the E-score was -0.0524.
`CTACGTAC` has an E-score of 0.00748.
`CTGCCCGA` has an E-score of 0.0547.
With `AAAAGATC` the E-score was -0.0875.
With `TCAGTAAA` the E-score was 0.0261.
`CCCATATC` gave an E-score of -0.151.
With `AAGCCACA` the E-score was -0.0857.
`CCTTTCGC` gave an E-score of 0.134.
`GTATACTA` gave an E-score of -0.143.
The E-score of `GTAAATGA` is reported as -0.103.
`AGTGTCTA` gave an E-score of -0.0318.
`TCGCCGCA` has an E-score of 0.217.
For `CAGTTATA`, the E-score was -0.0821.
With `TCTATGCA` the E-score was -0.161.
`CAGGGAAA` gave an E-score of -0.0127.
The E-score of `AGTTTGAT` is reported as -0.0452.
`AACTGTCT` has an E-score of -0.11.
`ACAGACCA` has an E-score of -0.164.
`ACACAGAG` has an E-score of -0.0492.

Series 2
Target: RNA binding protein fox-1 homolog 2, RRM domain, GST-SBP tag (RBFOX2, Homo sapiens, UniProt O43251-10, residues 100-194)
Technique: RNA Bind-n-Seq
Molecule type: RNA
Medium: in vitro
Concentration: 365 nM
Notes: natural RNA segment, single round, ends assumed
Reference: no-protein control
Reading: higher = stronger binding
Shared flanks, not repeated: GGGAGUUCUACAGUCCGACGAUC … UGGAAUUCUCGGGUGCCAA
Construct (chain): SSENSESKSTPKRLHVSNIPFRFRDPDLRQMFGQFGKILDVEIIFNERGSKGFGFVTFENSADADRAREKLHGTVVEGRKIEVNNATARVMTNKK
For `GAUUCUGUAGCUUUAACUUGUAAACCACAUCUUUUUUGCACUUUUUUUUAUAAAGCAAAAACGUGCCGUUUAAACCACUGGAUCUAUCUAAAUGCCGAUUUGAGUUCGCG`, “RBNS enrichment (R)” read 0.312.
Under “RBNS enrichment (R)”, `AACAAGGACAAAUUCCUGCUACUAAGACAUGCUGUUAACUCAGUCUGACUGGAAGAAUUUAGGACCACUGCAUCCUGUCUUAAUCCAAGGUACUGGAAAACCUUCCACAU` is recorded as 0.435.
For `UGGCCUACAGCUUCCUCUGCAGGGUCUAAACAGGGAAGGCACGUGUGGAGGAGUGGUCCCAGUGACAUCCAGGCACCAUUCAGCACAACACUGGGAAGUGAUUCUUCCCU`, “RBNS enrichment (R)” read 2.72.
`GAUGAGGACAUCCUCUUUGUCUACCUGGACAGCUGACAGCAGGAGCCUGGCAUGCCAGGUCCUCAGACCCUAUGUUCUAUCUCAGCCAGGCCCACUCAGGAUGCCCAUGC` — result for “RBNS enrichment (R)”: 0.355.
Under “RBNS enrichment (R)”, `CUGCUUGACAAUAAUUCCCUUCCCCCAAAAUGAGCAGUGUAGGCAAGAAAAUUCUAGCCAUGACCAGUGGUCCCUCAGAGCUAACCAUCUCUGAGGCAUUGUGGUGGUCC` is recorded as 0.54.
`GUGAGCAAGUCCCCCAAGCCCUGACCAGCCUCCUCCCAUGACUGGUGACUGUUUAACAAGCUGUGCAUCCCCCACAAAAAUAGGAGUGCCCUAUUUGUAGUCUCCACCUC` — result for “RBNS enrichment (R)”: 0.411.
`CUGACAAUGCCUAGGACUGCCUUACUCCCUUCCCUCAGGCCAGUUCCUGGGCCAGCACUAGCCUUGAAUUUGCUCAUCCGCUUGAAACCUACUGGGGGAUGGGGCCCGUG` — result for “RBNS enrichment (R)”: 1.15.
Under “RBNS enrichment (R)”, `UCGUGGAGUCAUUGUGUUCAGCUCUGAGAAGAACAAAGAUUCAUAGUUCUGUACAUGUGGCUGGAUUUAAAUAUCCUGUUUUUGAUACUAAUUUUGAAAGUCAUGUAACU` is recorded as 0.464.
For `UUGGCACUCUAGUGCUCACAUAAUGGGUGAAGCCAUGGAAAGAGUCUAUGGUGGAUGUUUAUGCUACGGUCCGCCAAUAGAAAAUGGAUUCUAUUAUGACAUGUACCUCG`, “RBNS enrichment (R)” read 0.395.
`AUAUUUGUUCUAGUUGGAAAGACGAAGCACUUUAUAAGCAUCAGACAAGUGUUUGGGACUAAUUGAGAAACAAGCCAGCUUAGAUGGAAGCUGUGCUGUGUGACUAUUAG`: “RBNS enrichment (R)” 0.487.
`UCAGCUUAGGUCACUUGAACAUGUGUAAGUGGUAUAAGUAGGAGCUAAAUGCCAGGAGGAAAAAGGUUCUCGAAGAACAGCAGAGUUUUCCUGUAAAACCAGUCUCAUUU`: “RBNS enrichment (R)” 0.69.
`GUUUGUAUAGGGACCAUGUUUCCCAACGCACUUUGAGUGCAGUUUAGGAGGUAUCCUUUGGAUGCUGAAGUGUUGGGAUUUUGAGGACAUGCGGAUGAUUUAUGAGAAUA`: “RBNS enrichment (R)” 0.771.

Series 3
Target: Ras GTPase-activating protein-binding protein 1, full length (G3BP1, Homo sapiens, UniProt Q13283)
UniProt Q13283, sequence (whole entry, looked up): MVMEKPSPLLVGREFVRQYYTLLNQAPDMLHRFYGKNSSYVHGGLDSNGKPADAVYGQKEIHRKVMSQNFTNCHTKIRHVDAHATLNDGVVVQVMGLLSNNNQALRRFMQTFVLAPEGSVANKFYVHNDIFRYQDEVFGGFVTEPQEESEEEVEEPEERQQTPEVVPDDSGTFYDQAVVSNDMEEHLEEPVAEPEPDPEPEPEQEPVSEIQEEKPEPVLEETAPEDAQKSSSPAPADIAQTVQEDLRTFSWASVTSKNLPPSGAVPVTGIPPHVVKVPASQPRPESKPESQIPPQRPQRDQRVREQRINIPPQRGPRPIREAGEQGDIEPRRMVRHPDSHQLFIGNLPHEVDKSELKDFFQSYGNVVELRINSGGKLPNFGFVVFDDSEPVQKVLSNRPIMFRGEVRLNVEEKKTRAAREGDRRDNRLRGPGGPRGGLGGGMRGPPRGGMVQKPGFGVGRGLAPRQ
Technique: RNA Bind-n-Seq
Molecule type: RNA
Medium: in vitro
Concentration: 200 nM
Notes: whole 134-nt RNA, ends assumed
With: 150 mM LiCl
Reference: input library
Reading: higher = stronger binding
Library: 7-deaza-guanosine replaces G
Shared flanks, not repeated: GGGAGUUCUACAGUCCGACGAUC … UGGAAUUCUCGGGUGUCAAGG
With `CCUCAAGUCCUGUGCUACACAUCGUAUGUACCGAAUCGGGGCGGCGGGGCGGGAAAGUAUUAUGUUACGCCGUUCGGAUCUGCACUUCCA` the log2 enrichment was -0.346.
With `CACAGACAACACGCACCCACACAGACACAGAGGGAAGGGGUUGGGAUGGGGACAGGGUGCACAGCAGGGCGGGGUGGGACCCCAGCCCCU` the log2 enrichment was 0.969.
`ACCAUGCAGGUGGGCGUCUUUGGGAAGUGGGGCAAGGGGGGGAUAGGGAGGGGGGUAACACUUUGGGAACAGGUGGUCCCAGGUCGUUUC` gave a log2 enrichment of 0.545.
`UAACAUUAGAGGAGGAUCUGAUGGAUAUGGCAGUGGACGUGGAUUUGGGGAUGGCUAUAAUGGGUAUGGAGGAGGACCUGGAGGUGGCAA` has a log2 enrichment of 0.0268.
`UGGGUUCUUAUUUCUAACUUGCAUAUGUUUUGUUUUUCAGAAGGAGUUGAGCCUUCCAAGAAGAGGCAGCUUGUAAGUAGAUGAUUAUUA` gave a log2 enrichment of -1.59.
With `CCUCAAGUCCUGUGCUACACAUCGUAUGUACCGAAUCGGAAGGGAAGGAAGGAAAGUAUUAUGUUACGCCGUUCGGAUCUGCACUUCCAG` the log2 enrichment was -1.28.
With `CUUGACCCUCAACACCAACCAUGGGCAUAUCCUGGUGGAUUACUCCAAGAACCUGGUGACGGAGGACGUGAUGCGGAUGCUGGUGGACUU` the log2 enrichment was -1.86.
`UCAAGUCCUGUGCUACACAUCGUAUGUACCGAAUCGGUUUGGUUUUUUUGGUGGAAAGUAUUAUGUUACGCCGUUCGGAUCUGCACUUCC` has a log2 enrichment of -0.389.
For `UAACUUUAGAGGAGGAUCUGAUGGGUAUGGCAGUGGACGUGGAUUUGGGGAUGGCUAUAAUGGGUAUGGAGGAGGACCUGGAGGUGGCAA`, the log2 enrichment was 0.0792.
For `CACAGACAACACGCACCCACACAGACACAGAGGGAAGGGGUUGGGAUGGGGACAGGGUGCACAGCAGGGCGGGGUAGGACCCCAGCCCCC`, the log2 enrichment was 0.376.
With `CAAGUCCUGUGCUACACAUCGUAUGUACCGAAUCGGGGUUGGGGUUGGGUUGGGGAAAGUAUUAUGUUACGCCGUUCGGAUCUGCACUUC` the log2 enrichment was 0.572.

Series 4
Target: Prothrombin, mature alpha-thrombin (F2, Homo sapiens, UniProt P00734)
Technique: aptamer microarray, sandwich
Molecule type: DNA with 2'F-ANA
Medium: in vitro
Concentration: 200 nM
Notes: whole 15-mer aptamer, many near background
With: Cy3 exosite-II aptamer, 400 nM
Reading: higher = stronger binding
Strand: GGTTGGTGTGGTTGG
Under “mean fluorescence intensity”, `2'F-ANA at 1 5 6 7 8 10 12 13 15` is recorded as 49.5 a.u.
Under “mean fluorescence intensity”, `2'F-ANA at 1 2 4 5 6 9 10 13 14` is recorded as 50.6 a.u.
For `2'F-ANA at 1 3 5 7 8 9 10 14 15`, “mean fluorescence intensity” read 49.1 a.u.
`2'F-ANA at 1 2 5 7 9 10 12 13 14` — result for “mean fluorescence intensity”: 49.5 a.u.
`2'F-ANA at 2 6 8 9 10 11 12 13 14 15` — result for “mean fluorescence intensity”: 116 a.u.
For `2'F-ANA at 2 4 5 6 7 9 11 12 13 14 15`, “mean fluorescence intensity” read 50 a.u.
For `2'F-ANA at 4 6 9 11 12 14`, “mean fluorescence intensity” read 92 a.u.
`2'F-ANA at 1 2 4 6 7 9 11 12 13 14 15`: “mean fluorescence intensity” 66.2 a.u.
For `2'F-ANA at 3 4 5 7 8 9 10 11 13`, “mean fluorescence intensity” read 56.3 a.u.
`2'F-ANA at 1 3 6 8 10 12 13 15` — result for “mean fluorescence intensity”: 119 a.u.
Under “mean fluorescence intensity”, `2'F-ANA at 1 5 6 8 9 10 11` is recorded as 45.7 a.u.
For `2'F-ANA at 3 4 5 7 10 12 13 14 15`, “mean fluorescence intensity” read 51.7 a.u.
`2'F-ANA at 1 2 5 6 8 9 11 13`: “mean fluorescence intensity” 50.7 a.u.
Under “mean fluorescence intensity”, `2'F-ANA at 1 2 3 4 8 9 11 12 13 14` is recorded as 65.6 a.u.
`2'F-ANA at 1 2 3 4 5 7 8 10 14 15` — result for “mean fluorescence intensity”: 44.9 a.u.
`2'F-ANA at 1 2 3 4 5 7 10 11 12 13 15` — result for “mean fluorescence intensity”: 53.6 a.u.
`2'F-ANA at 1 2 3 4 6 9 10 11 12`: “mean fluorescence intensity” 65.5 a.u.
`2'F-ANA at 1 2 3 4 5 6 10 11 12` — result for “mean fluorescence intensity”: 72.5 a.u.
For `2'F-ANA at 4 5 6 8 9 12 14`, “mean fluorescence intensity” read 47.7 a.u.
For `2'F-ANA at 3 7 9 11 12 13 14`, “mean fluorescence intensity” read 670 a.u.
Under “mean fluorescence intensity”, `2'F-ANA at 4 6 7 8 9 11` is recorded as 260 a.u.
`2'F-ANA at 1 3 6 7 8 9 10 11 12 13` — result for “mean fluorescence intensity”: 138 a.u.
`2'F-ANA at 3 6 7 8 10 12 14` — result for “mean fluorescence intensity”: 405 a.u.

Repeated from above (series 1):
The E-score of `AATGAAGA` is reported as 0.0637.
`ACAGACCA` has an E-score of -0.164.
`CCTTTCGC` gave an E-score of 0.134.
`GTATACTA` gave an E-score of -0.143.
The E-score of `GTAAATGA` is reported as -0.103.
`CAGGGAAA` gave an E-score of -0.0127.
For `TCCTTGAA`, the E-score was -0.0524.
The E-score of `CTGGAGTA` is reported as -0.143.
`CTGCCCGA` has an E-score of 0.0547.
The E-score of `AGTTTGAT` is reported as -0.0452.
`TCGCCGCA` has an E-score of 0.217.
`CCCATATC` gave an E-score of -0.151.
